Measurements gathered from unrelated publications.
Compare with care: the assays were run in different laboratories. Numbers after ± are the reported error. ≈ marks a conversion by molar mass, not a printed value.
B1: UGT1A9 (Homo sapiens, UniProt O60656); chain GKLLVVPMDGSHWFTMRSVVEKLILRGHEVVVVMPEVSWQLGRSLNCTVKTYSTSYTLEDLDREFKAFAHAQWKAQVRSIYSLLMGSYNDIFDLFFSNCRSLFKDKKLVEYLKESSFDAVFLDPFDNCGLIVAKYFSLPSVVFARGILCHYLEEGAQCPAPLSYVPRILLGFSDAMTFKERVRNHIMHLEEHLLCHRFFKNALEIASEILQTPVTEYDLYSHTSIWLLRTDFVLDYPKPVMPNMIFIGGINCHQGKPLPMEFEAYINASGEHGIVVFSLGSMVSEIPEKKAMAIADALGKIPQTVLWRYTGTRPSNLANNTILVKWLPQNDLLGHPMTRAFITHAGSHGVYESICNGVPMVMMPLFGDQMDNAKRMETKGAGVTLNVLEMTSEDLENALKAVINDKSYKENIMRLSSLHKDRPVEPLDLAVFWVEFVMRHKGAPHLRPAAHDLTWYQYHSLDVIGFLLAVVLTVAFITFKCCAYGYRKCLGKKGRVKKAHKSKTH

Molecule = des-acyl ghrelin (human); test system = mouse, Ghsr knockout, cerebellum; conditions = intravenous, 10 min; measurement = brain/serum ratio; result = 9.51 µL/g
Molecule = Cn1ncc(Cl)c1-c1cc(C(=O)N[C@H](CN)Cc2ccc(F)c(F)c2)oc1Cl; test system = human patients, plasma; conditions = oral, 20 mg once daily, day 8, repeat dose; measurement = effective half-life; result = 84.7 h
Molecule = CC(C)NC[C@@H](C(=O)N1CCN(c2ncnc3c2[C@H](C)C[C@H]3O)CC1)c1ccc(Cl)cc1; test system = human, Mild hepatic function, plasma; conditions = oral, 100 mg single dose, NCI classification, arithmetic mean; measurement = t1/2; result = 59.9 h
Molecule = NC(=O)N1CCC(CC(=O)N2CCC([C@H]3c4ncc(Br)cc4CCc4cc(Cl)cc(Br)c43)CC2)CC1; test system = human, plasma; conditions = oral, 150 mg twice daily, cycle 2 day 15, with: gemcitabine 750 mg/m2; measurement = AUC(tau); result = 15300 ng·h/mL
Molecule = NYLAWYQ; test system = peptide, human polyclonal IgM RF STR; conditions = concentration not given, 5 µg/mL mAb II-481 coated, with: RF at 50% max binding concentration; measurement = inhibition; result = 28%
Molecule = CCc1c(CO)c(CO)c2n1Cc1c(c3ccccc3n1C)C2; test system = male Sprague-Dawley rat, whole blood; conditions = intravenous, 10 mg/kg; measurement = Vss; result = 1.46 ± 0.29 L/kg
Molecule = Cc1nc2c([nH]1)c(=O)n(C)c(=O)n2Cc1ccco1; assay = enzyme activity, inhibitor; test system = human liver microsomes; conditions = 10 µM, 10 min preincubation, with: rosiglitazone 10 µM; measurement = inhibition; result = 18%
Molecule = CC(=O)O[C@H]1C(=O)[C@@]2(C)[C@H]([C@H](OC(=O)c3ccccc3)[C@]3(O)C[C@H](OC(=O)[C@H](O)[C@@H](NC(=O)c4ccccc4)c4ccccc4)C(C)=C1C3(C)C)[C@]1(OC(C)=O)CO[C@@H]1C[C@@H]2O; assay = ELISA; test system = C57BL/6 mouse, B16/F10 tumour, tumour homogenate; conditions = intravenous, 2.5 mg/kg; measurement = tumour concentration; result = 25 ng/mL
Molecule = CNC(=O)c1ccc(-c2cnc3ncc(Cc4ccc5ncccc5c4)n3n2)cc1F; test system = human, moderate hepatic impairment (Child-Pugh B), plasma; conditions = oral, 200 mg single dose; measurement = half-life (geometric mean); result = 5.77 h
Molecule = CC1(C)C(=CC=C2CCCC(C=CC3=[N+](CCCCS(=O)(=O)[O-])c4ccccc4C3(C)C)=C2Cl)N(CCCCCC(=O)O)c2ccccc21; assay = NIR fluorescence imaging; test system = nude mouse, MCF7 xenograft; conditions = 17 nmol/mouse, 5 d; scale = baseline: Cy7; measurement = tumour fluorescence per volume; result = ~4 fold
Molecule = QTAEELLEV; assay = far-UV CD; test system = peptide, Tris-HCl buffer, 100 mM NaCl; conditions = pH 8.0, room temperature; measurement = alpha-helix content; result = 83.6%
Molecule = Oc1ccc(/C=C/c2cc(O)cc(O)c2)cc1; assay = in situ intestinal perfusion; test system = Sprague-Dawley rat, colon; conditions = 25 µg/mL, 120 min, pH 7.4; measurement = effective permeability; result = 5.1867 ± 0.000105 ×10⁻⁶ cm/s
Molecule = CC(C)(Sc1ccncc1-c1ccc(C#N)c2ccccc12)C(=O)O; test system = human, male, Japanese, plasma; conditions = oral, 2.5 mg, day 6, fed, single dose; measurement = t1/2; result = 8.65 h
Molecule = CC[C@@H](C)[C@@H]1NC(=O)[C@H]([C@@H](C)CC)NC(=O)[C@@H](Cc2c[nH]c3ccccc23)NC(=O)CCSCC[C@@H](C(=O)N(C)[C@H](CO)CCCN)NC(=O)[C@H](CC(N)=O)NC1=O; test system = perfused human term placental cotyledon; conditions = 1.2 µM, 1 to 120 min, 36.5 °C, maternal to fetal, with: antipyrine 531 µM; measurement = steady-state placental transfer; result = ~11%
Molecule = O=C(Nc1nc2cccc(-c3ccc(CN4CCS(=O)(=O)CC4)cc3)n2n1)C1CC1; test system = human male; conditions = oral, 300 mg once daily, steady state, mean; measurement = terminal half-life; result = 10.9 h
Molecule = COc1cccc(N2CCN(C3=Nc4c(F)cccc4[C@H](CC(=O)O)N3c3cc(C(F)(F)F)ccc3OC)CC2)c1; test system = healthy women, plasma; conditions = intravenous infusion, 240 mg, day 1, single dose, 30-min infusion; measurement = volume of distribution; result = 193 ± 64.2 L
Molecule = CARLSLSWRGLTLCPSK (68Ga-DOTA-labelled); tested on = mouse VAP-1; assay = ex vivo biodistribution; test system = peptide, wild-type mouse, B16 melanoma xenograft, liver; conditions = 60 min, with: 500-fold excess unlabelled DOTA-peptide; measurement = uptake; result = 0.74 ± 0.08 SUV
Molecule = CC(=O)N[C@@H](Cc1ccccc1)C(=O)N[C@H]1CCCNC(=O)[C@H](CCCNC(=N)N)NC(=O)[C@H](Cc2c[nH]c3ccccc23)NC(=O)[C@@H](CC2CCCCC2)NC(=O)[C@@H]2CCCN2C1=O; test system = C57BL/6J mice, spinal cord; conditions = subcutaneous, 1 mg/kg; measurement = absorption half-life; result = 0.257 h
Molecule = YFCHQYL; test system = peptide, human polyclonal IgM RF STR; conditions = concentration not given, 5 µg/mL mAb II-481 coated, with: RF at 50% max binding concentration; measurement = inhibition; result = 0%
Molecule = C=C(C)[C@@H]1CC[C@]2(NCCN3CCS(=O)(=O)CC3)CC[C@]3(C)[C@H](CC[C@@H]4[C@@]5(C)CC=C(C6=CC[C@@](CF)(C(=O)O)CC6)C(C)(C)[C@@H]5CC[C@]43C)[C@@H]12; test system = healthy human; conditions = oral, 100 mg, single ascending dose, geometric mean; measurement = t1/2; result = 22.8 h
Molecule = acyl ghrelin (human); test system = mouse, Ghsr knockout, thalamus; conditions = intravenous, 10 min; measurement = brain/serum ratio; result = 4.27 µL/g
Molecule = COC(=O)c1ccc2c(c1)NC(=O)/C2=C(\Nc1ccc(N(C)C(=O)CN2CCN(C)CC2)cc1)c1ccccc1; test system = human moderate liver impairment, plasma; conditions = oral, 200 mg twice daily, geometric mean; measurement = AUC(tau) steady state; result = 1060 ng·h/mL
Molecule = CS(=O)(=O)n1cc2c(n1)CN([C@H]1CO[C@H](c3cc(F)ccc3F)[C@@H](N)C1)C2; test system = healthy male human, plasma; conditions = oral, 25 mg once weekly, day 15, fasted, geometric mean; measurement = concentration at 168 h; result = 17.1 nM
Molecule = O=C(c1cccnc1-c1ccncc1)N1CCC(O)(Cc2ccccc2)CC1; test system = healthy human, urine; conditions = oral, 300 mg once daily, day 1, arithmetic mean; measurement = renal clearance; result = 5 mL/min
Molecule = CCCOc1ccc([C@H]2CNC(=O)N2c2ccc3[nH]cnc3c2)cc1; test system = human volunteers fasted, plasma; conditions = oral solution, 400 mg single dose, day 1, geometric mean; measurement = apparent terminal half-life; result = 3.98 h
Molecule = CC1=C2C[C@H]3[C@@H](CC[C@@H]4C[C@H](NS(C)(=O)=O)CC[C@@]43C)[C@@H]2CC[C@@]2(C1)O[C@@H]1C[C@H](C)CN[C@H]1[C@H]2C; test system = patients, plasma; conditions = oral, 210 mg single, day -7, cycle 1; measurement = Tmax; result = 6 h
Molecule = O=C(O)Cc1ccccc1Nc1c(Cl)cc(F)cc1Cl; assay = glucuronidation; test system = human liver microsomes; conditions = 30 min, with: UDPGA; measurement = remaining compound; result = 43 ± 0.8%
Molecule = O=C(/C=C/c1ccc(O)cc1)c1ccc(O)cc1O; test system = Sprague Dawley rat, plasma; conditions = intravenous, 2 mg/kg single dose; measurement = distribution half-life; result = 4.2 ± 0.6 min
Molecule = CC(=O)Nc1ccc(O)cc1; test system = Sprague Dawley rat, overdose; conditions = oral, 1725 mg/kg, 24 and 48 h, single dose; scale = baseline: saline control; measurement = ALT and AST increase; result = > 5 fold
Molecule = Cn1c(-c2ccc(C(N)=O)cc2F)nnc1C(C)(C)Oc1c(F)cc(Cl)cc1F; test system = young Japanese adults, plasma; conditions = oral, 50 mg single dose, day 1, high-dose multiple-dose study; measurement = half-life range over subjects; result = 8.57 to 15.6 h
Molecule = CCCC[C@@H]1NC(=O)[C@@H](NC(=O)[C@H](CCC(=O)O)NC(=O)CNC(=O)CN2CCN(CC(=O)O)CCN(CC(=O)O)CCN(CC(=O)O)CC2)CCCCNC(=O)C[C@@H](C(N)=O)NC(=O)[C@H](C(C)C)NC(=O)[C@@H]2CCCN2C(=O)[C@H](CCCNC(=N)N)NC(=O)CNC(=O)[C@H](Cc2c[nH]c3ccccc23)NC(=O)[C@H](CCCNC(=N)N)NC(=O)[C@@H](Cc2ccccc2)NC(=O)[C@H](Cc2c[nH]cn2)NC(=O)[C@H](CCC(=O)O)NC1=O [indium-111 labelled]; test system = normal C57 mice, liver; conditions = intravenous, 0.037 MBq, 2 h; measurement = tissue uptake; result = 0.41 ± 0.09 %ID/g
Molecule = Cc1cc(C)c2c(c1)[C@@H](N(Cc1cc(C(F)(F)F)cc(C(F)(F)F)c1)c1nnn(C)n1)CCCN2C[C@H]1CC[C@H](C(=O)O)CC1; assay = LC-MS/MS; test system = human, plasma; conditions = oral, 10 mg once daily, steady state; measurement = t1/2; result = 23.6 h
Molecule = O=C1N=C(N2CCOCC2)CN1c1ccc(Cl)cc1; test system = beagle dog, female; conditions = oral, 30 mg/kg, tablets, fasted; measurement = terminal half-life; result = 1.47 h
Molecule = B1 (UGT1A9); tested on = CCCc1ccc(O)cc1; assay = steady-state kinetics; conditions = pH 7.4, 37 °C; measurement = Vmax/Km; result = 42 µL/min/mg
Molecule = Cc1nc2cccc(OCC(C)(C)C(=O)NC(C)C)c2c(N)c1C(=O)O; test system = female Sprague-Dawley rat, plasma; conditions = dietary, 60 mg/kg/day, day 90; measurement = Tmax; result = 3 h
Molecule = C[C@](N)(Cc1ccc(O)c(O)c1)C(=O)O; assay = static gravimetric method; test system = supercritical CO2, 435.3 kg/m3; conditions = 5 h, 333 K, pressure 12 MPa; measurement = solubility; result = 31.7 µg/mL (≈ 150 µM)
Molecule = CC(=O)N[C@@H](CCCNC(=N)N)C(=O)N[C@@H](C)C(=O)N[C@@H](CC(=O)O)C(=O)N[C@@H](C)C(=O)N[C@@H](CCCNC(=N)N)C(=O)N[C@@H](C)C(=O)N[C@@H](CC(=O)O)C(=O)N[C@@H](C)C(=O)N[C@@H](CCCNC(=N)N)C(=O)N[C@@H](C)C(=O)N[C@@H](CC(=O)O)C(=O)N[C@@H](C)C(=O)N[C@@H](CCCNC(=N)N)C(=O)N[C@@H](C)C(=O)N[C@@H](CC(=O)O)C(=O)N[C@@H](C)C(N)=O; assay = rotational rheometry; test system = 1% w/v aqueous solution; conditions = shear rate range 1-1000 s^-1; measurement = viscosity; result = 955 ± 46.7 Pa·s
Molecule = CCCCOCCOc1ccc(-c2ccc3c(c2)/C=C(/C(=O)Nc2ccc([S@@+]([O-])Cc4cncn4CCC)cc2)CCCN3CC(C)C)cc1; test system = human, moderate hepatic impairment; conditions = oral, 150 mg; measurement = effective half-life; result = 25.4 h

Excerpt of the above:
Molecule = CC1=C2C[C@H]3[C@@H](CC[C@@H]4C[C@H](NS(C)(=O)=O)CC[C@@]43C)[C@@H]2CC[C@@]2(C1)O[C@@H]1C[C@H](C)CN[C@H]1[C@H]2C; test system = patients, plasma; conditions = oral, 210 mg single, day -7, cycle 1; measurement = Tmax; result = 6 h
Molecule = O=C(O)Cc1ccccc1Nc1c(Cl)cc(F)cc1Cl; assay = glucuronidation; test system = human liver microsomes; conditions = 30 min, with: UDPGA; measurement = remaining compound; result = 43 ± 0.8%
Molecule = O=C(/C=C/c1ccc(O)cc1)c1ccc(O)cc1O; test system = Sprague Dawley rat, plasma; conditions = intravenous, 2 mg/kg single dose; measurement = distribution half-life; result = 4.2 ± 0.6 min
Molecule = CC(=O)Nc1ccc(O)cc1; test system = Sprague Dawley rat, overdose; conditions = oral, 1725 mg/kg, 24 and 48 h, single dose; scale = baseline: saline control; measurement = ALT and AST increase; result = > 5 fold
Molecule = Cn1c(-c2ccc(C(N)=O)cc2F)nnc1C(C)(C)Oc1c(F)cc(Cl)cc1F; test system = young Japanese adults, plasma; conditions = oral, 50 mg single dose, day 1, high-dose multiple-dose study; measurement = half-life range over subjects; result = 8.57 to 15.6 h
Molecule = CCCC[C@@H]1NC(=O)[C@@H](NC(=O)[C@H](CCC(=O)O)NC(=O)CNC(=O)CN2CCN(CC(=O)O)CCN(CC(=O)O)CCN(CC(=O)O)CC2)CCCCNC(=O)C[C@@H](C(N)=O)NC(=O)[C@H](C(C)C)NC(=O)[C@@H]2CCCN2C(=O)[C@H](CCCNC(=N)N)NC(=O)CNC(=O)[C@H](Cc2c[nH]c3ccccc23)NC(=O)[C@H](CCCNC(=N)N)NC(=O)[C@@H](Cc2ccccc2)NC(=O)[C@H](Cc2c[nH]cn2)NC(=O)[C@H](CCC(=O)O)NC1=O [indium-111 labelled]; test system = normal C57 mice, liver; conditions = intravenous, 0.037 MBq, 2 h; measurement = tissue uptake; result = 0.41 ± 0.09 %ID/g
